Results gathered from unrelated publications.
Compare with care: the assays were run in different laboratories. Numbers after ± are the reported error. Converted amounts (≈) assume the structure as drawn.
rep nsp14: Replicase polyprotein 1ab, nsp14 (rep, Severe acute respiratory syndrome coronavirus 2, UniProt P0DTD1)
Chain of UniProt P11388 (whole entry, looked up): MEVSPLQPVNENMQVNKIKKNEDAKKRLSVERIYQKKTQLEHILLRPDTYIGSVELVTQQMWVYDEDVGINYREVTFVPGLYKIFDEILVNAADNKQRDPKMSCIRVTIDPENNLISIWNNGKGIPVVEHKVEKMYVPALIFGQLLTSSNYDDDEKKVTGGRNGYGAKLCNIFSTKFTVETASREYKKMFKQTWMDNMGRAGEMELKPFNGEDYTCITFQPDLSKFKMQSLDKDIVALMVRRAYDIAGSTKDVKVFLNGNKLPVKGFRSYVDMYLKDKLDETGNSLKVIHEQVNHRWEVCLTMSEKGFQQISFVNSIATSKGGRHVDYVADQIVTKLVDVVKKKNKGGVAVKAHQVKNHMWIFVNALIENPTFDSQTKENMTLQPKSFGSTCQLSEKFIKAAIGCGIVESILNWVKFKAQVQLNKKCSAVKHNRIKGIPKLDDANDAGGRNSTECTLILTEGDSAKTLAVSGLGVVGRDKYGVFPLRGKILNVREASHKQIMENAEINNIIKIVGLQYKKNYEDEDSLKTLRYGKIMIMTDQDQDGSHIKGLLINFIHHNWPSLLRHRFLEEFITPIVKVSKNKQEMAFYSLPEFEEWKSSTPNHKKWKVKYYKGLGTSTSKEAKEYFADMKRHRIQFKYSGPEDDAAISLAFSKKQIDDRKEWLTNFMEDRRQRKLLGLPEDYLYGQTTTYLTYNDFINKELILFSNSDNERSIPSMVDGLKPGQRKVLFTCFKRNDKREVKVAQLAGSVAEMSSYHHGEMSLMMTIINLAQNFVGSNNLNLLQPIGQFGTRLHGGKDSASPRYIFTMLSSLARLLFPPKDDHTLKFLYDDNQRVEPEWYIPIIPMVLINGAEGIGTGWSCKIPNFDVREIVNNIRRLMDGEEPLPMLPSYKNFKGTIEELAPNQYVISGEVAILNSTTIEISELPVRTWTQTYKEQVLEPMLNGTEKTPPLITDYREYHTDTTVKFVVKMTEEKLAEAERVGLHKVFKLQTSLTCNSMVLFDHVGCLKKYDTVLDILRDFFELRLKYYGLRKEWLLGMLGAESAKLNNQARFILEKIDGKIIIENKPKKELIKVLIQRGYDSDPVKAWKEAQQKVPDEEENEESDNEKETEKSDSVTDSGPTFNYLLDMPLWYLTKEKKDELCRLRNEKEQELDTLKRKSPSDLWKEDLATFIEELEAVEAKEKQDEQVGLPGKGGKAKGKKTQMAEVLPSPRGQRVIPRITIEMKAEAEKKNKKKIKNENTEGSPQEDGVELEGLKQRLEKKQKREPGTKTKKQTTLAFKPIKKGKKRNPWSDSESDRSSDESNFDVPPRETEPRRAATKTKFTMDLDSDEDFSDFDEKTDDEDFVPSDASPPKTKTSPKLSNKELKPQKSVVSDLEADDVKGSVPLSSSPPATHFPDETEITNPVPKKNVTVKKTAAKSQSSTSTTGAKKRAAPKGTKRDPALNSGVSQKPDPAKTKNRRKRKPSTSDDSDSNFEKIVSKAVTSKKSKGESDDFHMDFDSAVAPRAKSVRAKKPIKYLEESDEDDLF

`Clc1nc(NCc2ccco2)c2[nH]cnc2n1`: GLA splicing “no effect” (B-lymphoblastoid cells from healthy donors; RT-PCR; concentration not given).
For `OC[C@H]1O[C@@H](O[C@@H]2[C@@H](O)[C@H](O[C@H]3[C@H](O)[C@@H](CO)OC(O)[C@@H]3O)O[C@H](CO)[C@H]2O)[C@H](O)[C@@H](O)[C@@H]1O` (stereo partly shown), the ΔH was -10.1 kcal/mol (Bacteroides thetaiotaomicron; binding, ITC; pH 7.0, 25 °C, distal domain).
For `Fc1ccccc1Cc1nc(-c2nc(C(F)(F)F)n[nH]2)cn2ccnc12`, “choice reaction time” read -26.8 ms (healthy volunteers; 3 mg, single ascending dose; relative to: placebo).
With `COc1ccccc1CNC(=O)c1cc(S(=O)(=O)N2CCN(C(C)=O)CC2)c(C)n1C` the IC50 was greater than 6250 nM (rep nsp14; inhibitor).
The linear DNA of `COc1cc([C@@H]2c3cc4c(cc3[C@@H](O[C@@H]3O[C@@H]5CO[C@@H](C)O[C@H]5[C@H](O)[C@H]3O)[C@H]3COC(=O)[C@H]23)OCO4)cc(OC)c1O` is reported as 35.8% (TOP2A (Homo sapiens, UniProt P11388); DNA cleavage; 200 µM, replicate 2).
`C[C@H]1O[C@@H](O[C@H]2[C@@H](O)C[C@H](O[C@H]3[C@@H](O)C[C@H](O[C@H]4CC[C@@]5(C)[C@H](CC[C@@H]6[C@@H]5CC[C@]5(C)[C@@H](C7=CC(=O)OC7)CC[C@]65O)C4)O[C@@H]3C)O[C@@H]2C)C[C@H](O)[C@@H]1O` gave a MyBP-C level of 9.1% (MYBPC3 iPSC cardiomyocytes; plate-normalised; concentration not given, 24 h, hit retest).
The -TΔS of `OC[C@H]1O[C@@H](O[C@@H]2[C@@H](O)[C@H](O[C@@H]3[C@@H](O)[C@H](O[C@@H]4[C@@H](O)[C@H](O[C@H]5[C@H](O)[C@@H](CO)OC(O)[C@@H]5O)O[C@H](CO)[C@H]4O)O[C@H](CO)[C@H]3O)O[C@H](CO)[C@H]2O)[C@H](O)[C@@H](O)[C@@H]1O` (stereo partly shown) is reported as -6.67 kcal/mol (Bacteroides thetaiotaomicron; binding, ITC; pH 7.0, 25 °C, distal domain).
With `CO/N=C(\C(=O)N[C@@H]1C(=O)N2C(C(=O)O)=C(COC(C)=O)CS[C@H]12)c1csc(N)n1` the MIC was 2 µg/mL (≈ 4.39 µM) (Stenotrophomonas maltophilia; broth microdilution; clinical isolate RKI-No 136/09).
`N#CCC1CCN(c2nc(Nc3ccc(N4CCC(O)CC4)cc3)c3c(=O)[nH]ncc3n2)CC1`: “IL-18 level difference” -1.42 (vs placebo, Olink multiplex; human, serum; 40 mg, day 15, unit not given; relative to: placebo).
`CC(C)=CCC/C(C)=C\CCn1cc(C2OC2(P(=O)([O-])[O-])P(=O)([O-])[O-])nn1.[Na+].[Na+].[Na+].[Na+]` (stereo not shown): “lowest active concentration” 1 to 2.5 µM (RPMI-8226 and MM1.S myeloma; protein geranylgeranylation, immunoblot, item: unmodified Rap1a; 48 h).
`C[C@H]1O[C@@H](O[C@H]2[C@@H](O)C[C@H](O[C@H]3[C@@H](O)C[C@H](O[C@H]4CC[C@@]5(C)[C@H](CC[C@@H]6[C@@H]5CC[C@]5(C)[C@@H](C7=CC(=O)OC7)CC[C@]65O)C4)O[C@@H]3C)O[C@@H]2C)C[C@H](O)[C@@H]1O` gave an inhibition of 19.1% (Nedd8-cullin1 interaction; neddylation, AlphaScreen; 100 µM).
`CC(C)C[C@H](NC(=O)OCc1ccccc1)C(=O)N[C@H](C=O)C[C@@H]1CCCNC1=O` gave an EC50 of 1300 ± 500 nM (SARS-CoV-2; viral replication, RT-qPCR viral load; Calu-3; 72 h).
`C=C(C)[C@]12C[C@@H](C)[C@@]34O[C@](Cc5ccccc5)(O[C@@H]1[C@@H]3C=C(COC(=O)Cc1ccc(O)c(OC)c1)C[C@]1(O)C(=O)C(C)=C[C@@H]41)O2` has an EC50 of 224 nM (HEK293T ATF4-FLuc reporter; ATF4 reporter gene, activator, luciferase reporter).
The IC50 of `COc1ccccc1CNC(=O)c1cc(S(=O)(=O)N2CCOCC2)c(C)n1C` is reported as greater than 6250 nM (rep nsp14; inhibitor).
With `OC[C@H]1O[C@@H](O[C@@H]2[C@@H](O)[C@H](O[C@@H]3[C@@H](O)[C@H](O[C@H]4[C@H](O)[C@@H](CO)OC(O)[C@@H]4O)O[C@H](CO)[C@H]3O)O[C@H](CO)[C@H]2O)[C@H](O)[C@@H](O)[C@@H]1O` (stereo partly shown) the ΔH was -11.8 kcal/mol (Bacteroides thetaiotaomicron; binding, ITC; pH 7.0, 25 °C, middle domain).
`COC(=O)Nc1c(N)nc(-c2nn(Cc3ccccc3F)c3ncc(F)cc23)nc1N` — result for “seated SBP maximum decrease”: -0.6 mmHg (healthy white men; dose not given, day 14, 336 h, LS mean difference, with: sildenafil 50 mg; relative to: placebo).
`CC1COc2ccccc2N1C(=O)C(Cl)Cl` (stereo not shown) gave a remaining compound of 29 ± 2% (glutathione S-transferase; female rhesus monkey liver cytosol; 5 µM, 30 min, pH 7.4, with: GSH).
`OC[C@H]1O[C@@H](O[C@@H]2[C@@H](O)[C@H](O[C@@H]3[C@@H](O)[C@H](O[C@@H]4[C@@H](O)[C@H](O[C@@H]5[C@@H](O)[C@H](O[C@H]6[C@H](O)[C@@H](CO)OC(O)[C@@H]6O)O[C@H](CO)[C@H]5O)O[C@H](CO)[C@H]4O)O[C@H](CO)[C@H]3O)O[C@H](CO)[C@H]2O)[C@H](O)[C@@H](O)[C@@H]1O` (stereo partly shown) gave a ΔG of -23.6 kcal/mol (Bacteroides thetaiotaomicron; binding, ITC; pH 7.0, 25 °C, distal domain).
The remaining activity of `O=C(O)c1cccnc1Nc1cccc(C(F)(F)F)c1` is reported as 49.8% (vericiguat glucuronidation, inhibitor, item: metabolite M-1 formation; human liver microsomes; 5.0 µM; relative to: no inhibitor).
